Literature values as cited in several papers.
Numbers after ± are the reported error.
HDAC6: Protein deacetylase HDAC6 (HDAC6, Homo sapiens, UniProt Q9UBN7)
UniProt Q9UBN7, sequence (whole entry, looked up): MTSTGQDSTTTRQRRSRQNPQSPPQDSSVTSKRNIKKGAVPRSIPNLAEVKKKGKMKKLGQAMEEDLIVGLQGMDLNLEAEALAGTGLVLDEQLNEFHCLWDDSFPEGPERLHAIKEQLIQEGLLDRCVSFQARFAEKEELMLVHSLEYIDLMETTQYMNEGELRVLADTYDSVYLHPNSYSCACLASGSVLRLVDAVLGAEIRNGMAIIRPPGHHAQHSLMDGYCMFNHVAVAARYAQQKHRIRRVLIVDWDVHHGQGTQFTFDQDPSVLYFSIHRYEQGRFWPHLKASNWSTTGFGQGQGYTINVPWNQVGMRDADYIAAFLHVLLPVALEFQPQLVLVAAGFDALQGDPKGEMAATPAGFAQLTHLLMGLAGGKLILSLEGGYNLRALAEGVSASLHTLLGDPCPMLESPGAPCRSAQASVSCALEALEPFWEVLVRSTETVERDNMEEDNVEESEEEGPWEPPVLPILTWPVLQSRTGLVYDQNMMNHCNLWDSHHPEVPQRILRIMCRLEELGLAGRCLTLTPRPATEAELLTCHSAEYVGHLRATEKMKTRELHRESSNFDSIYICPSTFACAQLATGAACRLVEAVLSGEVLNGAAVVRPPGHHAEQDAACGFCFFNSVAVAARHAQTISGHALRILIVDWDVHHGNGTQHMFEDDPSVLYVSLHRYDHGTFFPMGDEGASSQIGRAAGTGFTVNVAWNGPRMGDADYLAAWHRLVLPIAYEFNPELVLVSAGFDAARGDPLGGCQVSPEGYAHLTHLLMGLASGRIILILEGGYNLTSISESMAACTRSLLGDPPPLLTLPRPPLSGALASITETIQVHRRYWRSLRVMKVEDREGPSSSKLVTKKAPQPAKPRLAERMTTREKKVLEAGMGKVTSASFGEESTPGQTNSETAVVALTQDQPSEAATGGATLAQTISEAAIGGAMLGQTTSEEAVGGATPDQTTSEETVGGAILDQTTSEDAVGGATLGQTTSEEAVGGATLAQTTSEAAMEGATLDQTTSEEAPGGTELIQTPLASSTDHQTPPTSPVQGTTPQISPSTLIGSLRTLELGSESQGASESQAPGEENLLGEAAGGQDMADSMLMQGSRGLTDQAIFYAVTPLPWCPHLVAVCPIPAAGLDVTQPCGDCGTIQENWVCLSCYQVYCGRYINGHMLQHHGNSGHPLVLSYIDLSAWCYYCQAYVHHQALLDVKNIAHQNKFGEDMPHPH
BCHE: Cholinesterase (BCHE, Equus caballus, UniProt P81908)
UniProt P81908, sequence (whole entry, looked up): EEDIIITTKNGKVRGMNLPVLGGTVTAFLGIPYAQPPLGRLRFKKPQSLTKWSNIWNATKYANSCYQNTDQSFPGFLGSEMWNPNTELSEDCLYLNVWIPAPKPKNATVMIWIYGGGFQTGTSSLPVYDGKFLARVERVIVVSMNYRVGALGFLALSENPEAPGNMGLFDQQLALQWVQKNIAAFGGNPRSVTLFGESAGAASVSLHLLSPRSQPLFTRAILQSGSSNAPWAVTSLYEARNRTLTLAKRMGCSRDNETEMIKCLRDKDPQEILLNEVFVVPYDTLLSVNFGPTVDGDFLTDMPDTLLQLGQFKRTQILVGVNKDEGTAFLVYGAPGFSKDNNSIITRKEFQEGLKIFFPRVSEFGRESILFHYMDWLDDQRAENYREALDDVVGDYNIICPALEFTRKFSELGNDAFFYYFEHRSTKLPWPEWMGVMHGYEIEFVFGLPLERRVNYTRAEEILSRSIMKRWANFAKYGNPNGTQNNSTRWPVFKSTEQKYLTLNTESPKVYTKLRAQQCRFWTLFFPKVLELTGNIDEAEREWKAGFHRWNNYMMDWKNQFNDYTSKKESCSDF
ACHE: Acetylcholinesterase (ACHE, Homo sapiens, UniProt P22303)
UniProt P22303, sequence (whole entry, looked up): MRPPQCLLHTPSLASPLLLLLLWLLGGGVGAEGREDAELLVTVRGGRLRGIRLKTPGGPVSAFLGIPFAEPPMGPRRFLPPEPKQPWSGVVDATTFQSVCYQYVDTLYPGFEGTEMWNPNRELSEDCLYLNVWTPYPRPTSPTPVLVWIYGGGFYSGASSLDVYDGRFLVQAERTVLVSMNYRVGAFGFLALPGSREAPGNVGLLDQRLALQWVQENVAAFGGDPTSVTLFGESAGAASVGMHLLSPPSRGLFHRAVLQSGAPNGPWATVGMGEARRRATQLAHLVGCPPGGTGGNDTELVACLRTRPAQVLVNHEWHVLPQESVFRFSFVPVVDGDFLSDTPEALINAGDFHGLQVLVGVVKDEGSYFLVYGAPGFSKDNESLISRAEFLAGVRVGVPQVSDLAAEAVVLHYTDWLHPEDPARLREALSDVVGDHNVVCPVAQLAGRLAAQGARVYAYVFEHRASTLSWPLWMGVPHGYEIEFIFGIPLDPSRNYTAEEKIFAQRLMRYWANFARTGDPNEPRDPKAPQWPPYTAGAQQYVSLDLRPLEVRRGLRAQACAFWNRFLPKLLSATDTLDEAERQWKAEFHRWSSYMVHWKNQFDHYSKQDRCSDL
UniProt P21397, sequence (whole entry, looked up): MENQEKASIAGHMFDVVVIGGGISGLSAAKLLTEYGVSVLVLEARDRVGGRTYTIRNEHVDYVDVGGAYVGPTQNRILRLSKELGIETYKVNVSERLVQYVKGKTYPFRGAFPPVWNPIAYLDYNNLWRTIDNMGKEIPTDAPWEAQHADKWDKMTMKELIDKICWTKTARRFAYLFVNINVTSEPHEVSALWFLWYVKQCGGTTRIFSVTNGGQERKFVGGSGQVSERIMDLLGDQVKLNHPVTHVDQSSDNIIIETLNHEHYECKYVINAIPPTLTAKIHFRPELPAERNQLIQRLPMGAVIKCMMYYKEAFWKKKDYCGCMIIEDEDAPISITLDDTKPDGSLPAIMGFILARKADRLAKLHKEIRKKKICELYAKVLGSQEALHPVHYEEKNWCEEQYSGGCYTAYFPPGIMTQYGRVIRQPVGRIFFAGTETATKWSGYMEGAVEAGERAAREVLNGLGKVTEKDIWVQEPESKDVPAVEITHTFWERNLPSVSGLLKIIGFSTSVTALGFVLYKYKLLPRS
UniProt P32247, sequence (whole entry, looked up): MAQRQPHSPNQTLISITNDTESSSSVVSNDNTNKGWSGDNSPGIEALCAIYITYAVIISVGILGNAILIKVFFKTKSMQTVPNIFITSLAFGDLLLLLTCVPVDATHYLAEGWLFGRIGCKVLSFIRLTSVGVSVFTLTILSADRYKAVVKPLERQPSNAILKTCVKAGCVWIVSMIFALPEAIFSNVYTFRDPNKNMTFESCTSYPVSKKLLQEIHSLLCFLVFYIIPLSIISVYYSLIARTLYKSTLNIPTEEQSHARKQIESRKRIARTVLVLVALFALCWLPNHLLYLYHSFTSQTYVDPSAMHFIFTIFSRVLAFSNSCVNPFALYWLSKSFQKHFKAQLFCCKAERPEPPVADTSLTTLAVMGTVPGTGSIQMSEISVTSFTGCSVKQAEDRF
UniProt P27338, sequence (whole entry, looked up): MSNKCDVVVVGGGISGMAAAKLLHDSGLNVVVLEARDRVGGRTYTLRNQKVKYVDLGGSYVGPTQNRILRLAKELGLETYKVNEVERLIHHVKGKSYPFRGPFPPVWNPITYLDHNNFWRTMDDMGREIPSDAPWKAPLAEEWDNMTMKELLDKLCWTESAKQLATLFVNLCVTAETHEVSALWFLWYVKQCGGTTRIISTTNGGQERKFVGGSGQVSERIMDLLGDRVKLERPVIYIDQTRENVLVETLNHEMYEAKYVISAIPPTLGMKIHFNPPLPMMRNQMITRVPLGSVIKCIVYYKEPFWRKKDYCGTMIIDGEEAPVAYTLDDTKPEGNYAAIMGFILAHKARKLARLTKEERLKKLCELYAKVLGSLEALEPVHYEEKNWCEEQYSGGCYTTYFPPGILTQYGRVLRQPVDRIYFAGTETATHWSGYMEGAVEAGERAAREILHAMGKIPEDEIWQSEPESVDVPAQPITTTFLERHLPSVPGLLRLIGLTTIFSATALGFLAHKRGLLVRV

Structure (SMILES) | target | test | system | conditions | how to read | IC50
C=CC(=O)N1CCC[C@@H](n2nc(-c3cn(C)c4ccccc34)c3c(N)ncnc32)C1 | Epidermal growth factor receptor (EGFR, Homo sapiens, UniProt P00533, L858R/T790M) |  |  |  |  | 2.5 ± 1.4 nM
CC(C)(C)NC(=O)N(CCCCCCN1C[C@H](O)[C@@H](O)[C@H](O)[C@H]1CO)C1CCCCC1 | α-glucosidase (pig liver) | inhibitor |  |  |  | 27800 nM
O=C(CS)NCCCCCCn1ccc2cc(Cl)c(Cl)cc21 | HDAC6 | inhibitor |  |  |  | 64 nM
CC(C)C[C@@H]1NC(=O)[C@H](Cc2ccc(O)cc2)NC(=O)[C@H](CC(N)=O)NC(=O)[C@H](CO)NC(=O)[C@@H](NC(=O)[C@@H]2CCCN2C(=O)[C@H](CC(N)=O)NC(=O)[C@H](Cc2ccc(O)cc2)NC(=O)[C@H](CCCCN)NC(=O)[C@H](CO)NC(=O)[C@H](C)NC(=O)[C@@H](N)CC(N)=O)CSC1=O | Accessory gene regulator protein C (Staphylococcus epidermidis, UniProt O86861) | agr reporter, antagonist | group-I reporter strain |  |  | 9.64 nM
O=C(CS)NCCCCCNc1cccc2cccnc12 | Histone deacetylase 1 (HDAC1, Homo sapiens, UniProt Q13547) | inhibitor |  |  |  | 4700 nM
CN(C)C12CC3CC(CC(C1)c1ccccc13)O2 | NMDA receptor | inhibitor |  |  |  | 6000 nM
CC1(C)CC(=O)C2=C(C1)N=c1sc(=Cc3ccc(OCCNCCc4c[nH]c5ccccc45)cc3)c(=O)n1C2c1c[nH]c2ccccc12 (centres unmarked) | Amine oxidase [flavin-containing] B (MAOB, Homo sapiens, UniProt P27338) | inhibitor |  |  |  | 330 nM
CNCP(C)(=O)O | Urease subunit alpha (Sporosarcina pasteurii, UniProt P41020) | enzyme activity, inhibitor |  |  |  | 60000 ± 300 nM
CC(=O)N(O)CCCP(=O)(O)O | Plasmodium falciparum DXP reductoisomerase | enzyme activity, inhibitor |  |  |  | 18 nM
CC(CCC(=O)O)C1CCC2C3CCC4CC(OC(=O)C(N)CC(=O)O)CCC4(C)C3CCC12C (centres unmarked) | Beta-galactoside alpha-2,6-sialyltransferase 1 (ST6GAL1, Homo sapiens, UniProt P15907) | enzyme activity, inhibitor |  |  |  | 15800 ± 100 nM
O=C(CS)NCCCCCCn1ccc2cc(F)c(Cl)cc21 | HDAC6 | inhibitor |  |  |  | 65 nM
CC(/C=N/NC(=N)N)=N\NC(=N)N | human AdoMetDC F233A | inhibitor |  |  | reference: wild type | increased
CN1CCC2(CC1)c1ccccc1N(Cc1ccc(C(=O)NO)cc1)C2c1ccc(Cl)cc1 (centres unmarked) | Histone deacetylase 8 (Schistosoma mansoni, UniProt A5H660) | inhibitor |  | added: Fluor-de-Lys substrate 50 µM |  | 7710 ± 2210 nM
CC(C)[C@@H]1NC(=O)[C@H](CCCCN)NC(=O)[C@@H](Cc2c[nH]c3ccccc23)NC(=O)[C@H](Cc2ccc(O)cc2)NC(=O)[C@@H](NC(=O)[C@H](N)Cc2ccc3ccccc3c2)CSSC[C@@H](C(=O)N[C@@H](Cc2ccc3ccccc3c2)C(N)=O)NC1=O | Bombesin receptor subtype-3 (BRS3, Homo sapiens, UniProt P32247) |  | Balb/3T3 expressing BRS3 |  |  | 338 nM
C#CCNc1ccc(/C=C2\SC(=O)N(CN(C)CCC(Oc3ccc(C(F)(F)F)cc3)c3ccccc3)C2=O)cc1 (centres unmarked) | BCHE | inhibitor |  |  |  | 203 nM
COc1cc(/C=C/c2nnc(-c3ccc(C(F)(F)F)cc3)o2)ccc1O | BCHE |  |  |  |  | 186 ± 5 nM
O=C(c1ccc(Br)cc1)[C@H]1[C@H](c2cn(-c3ccccc3)nc2-c2ccccc2)C2CC3CCCCC3N2[C@]12C(=O)Nc1ccc(Cl)cc12 (some centres unmarked) | Epidermal growth factor receptor (EGFR, Homo sapiens, UniProt P00533) | enzyme activity, inhibitor |  |  |  | 96.6 nM
CN1CCC2(CC1)c1ccccc1N(Cc1ccc(C(=O)NO)cc1)C2c1cccc(Cl)c1 (centres unmarked) | Histone deacetylase 8 (HDAC8, Homo sapiens, UniProt Q9BY41) | inhibitor |  | added: Fluor-de-Lys substrate 50 µM |  | 3420 ± 1280 nM
C[C@@H](NC(=O)[C@@H](N)Cc1ccc(O)cc1)C(=O)NCC(=O)N[C@@H](Cc1ccccc1)C(=O)N1CCN(C(=O)[C@H](Cc2ccccc2)NC(=O)CNC(=O)[C@@H](C)NC(=O)[C@@H](N)Cc2ccc(O)cc2)CC1 | δ-opioid receptor, mouse | muscle contraction | mouse vas deferens |  |  | 9.3 ± 0.4 nM
Cc1cn(C2CCC(OC(C(=O)O)P(=O)(O)O)C2)c(=O)[nH]c1=O (racemic) | Gag-Pol polyprotein, reverse transcriptase (gag-pol, Human immunodeficiency virus type 1 group M subtype B, UniProt P04585) |  |  |  |  | 410 nM
CN(CCCCCNc1c2c(nc3ccccc13)CCCC2)C1CCC(c2ccc(Cl)c(Cl)c2)c2ccccc21 (centres unmarked) | Amine oxidase [flavin-containing] A (MAOA, Homo sapiens, UniProt P21397) | inhibitor |  |  |  | 311 nM
CC1(C)C=Cc2c(ccc(C(=O)/C=C/c3ccc(O)cc3)c2O)O1 | ACHE |  |  |  |  | 20400 nM
COc1ccc2c(c1OC)CO/C(=C\c1cc[n+](Cc3ccc(F)cc3)cc1)C2=O | ACHE | enzyme activity, inhibitor |  |  |  | 8.93 nM

Some of these lines once more:
Structure (SMILES) | target | test | system | conditions | how to read | IC50
COc1cc(/C=C/c2nnc(-c3ccc(C(F)(F)F)cc3)o2)ccc1O | BCHE |  |  |  |  | 186 ± 5 nM
O=C(c1ccc(Br)cc1)[C@H]1[C@H](c2cn(-c3ccccc3)nc2-c2ccccc2)C2CC3CCCCC3N2[C@]12C(=O)Nc1ccc(Cl)cc12 (some centres unmarked) | Epidermal growth factor receptor (EGFR, Homo sapiens, UniProt P00533) | enzyme activity, inhibitor |  |  |  | 96.6 nM
